Assay results of several laboratories.
Each numbered part is a random draw from the data of one study; scales do not carry over between parts.

Study 1
Target: RING finger protein unkempt homolog, zinc fingers 1-6, GST-SBP tag (UNK, Homo sapiens, UniProt Q9C0B0, residues 30-357)
Chain of UniProt Q9C0B0 (30-357, looked up): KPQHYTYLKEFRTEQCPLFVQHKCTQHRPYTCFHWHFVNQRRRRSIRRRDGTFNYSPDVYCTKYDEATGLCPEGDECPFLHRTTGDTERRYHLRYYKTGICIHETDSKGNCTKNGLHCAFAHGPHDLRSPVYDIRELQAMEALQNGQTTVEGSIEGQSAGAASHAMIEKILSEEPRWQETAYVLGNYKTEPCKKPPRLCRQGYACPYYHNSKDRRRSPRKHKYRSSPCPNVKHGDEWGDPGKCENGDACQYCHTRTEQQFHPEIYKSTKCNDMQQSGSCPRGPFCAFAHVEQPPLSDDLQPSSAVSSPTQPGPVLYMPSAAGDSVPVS
Technique: RNA Bind-n-Seq
Molecule type: RNA
Sample: in vitro
Tested at: not given
Setting: RNA with constant flanks, human-mouse chimeric sites, ends assumed
Relative to: input RNA pool
Direction: higher = stronger binding
All sequences stand within: GGGAGUUCUACAGUCCGACGAUC … CAACAGAGGAUUGAGCAUCA
| Oligonucleotide | bound/input enrichment [ratio] |
| --- | --- |
| AAUUUCCUGUCAUACUUUUUAGACAUUCACAUCAGACUUACAGAGCACCUGGCCACAUUCUAGGUUUGAAUUAUUUCUAAGCCUUUUAUAUGAUCAAAUGAGAACACUGCUUAACUAAUG | 0.424 |
| GUGACUGGUGUUAAGAUUUCCCCUCAGCAAAGAAGUGCAGUAGUCACCAUAAUUCCAUCUAUAGUGAGUGCCAGUCAGAUUGUGGAGCUGGUUCCAGACCUCAGUUUAGACAUGGGAACU | 0.408 |
| AAAGAGAAACUAAAGCAACUAAUAGAGAAGAGGAUUGGCAAAGAGAAUUUCAUAGAGAAACUAGGAUUUUAUUAGCAAACAUGAGUUUAUUCCAGAGCGUCUCAGAAACCCCAGCCAAAC | 16.9 |
| UGUAGUUUCUUGAUUUAUCAUUUUUCUUGCUCGGGUUUUUCCUUUAGGAAAAGCCUAAAGAUUAGGUUGUAAGAAAAACAGAAGCCAUGUUUCGAAGGAAGACCUGUCAGGUAUUUCGUC | 0.141 |
| UCUGGUCACACUCGUGUAUAUGGUGUGUGCUUUGUGGACACUUCACUGGGCAAGUUUUUCAUCGGCCAGUUUUCAGAUGACCGCCACUGUUCCAGAUUUAGGACGCUAGUGGCUCACUAU | 0.227 |
| UAAAUUAGGGCUGCCGUUUUCUGUUUCUCCCUGGGCUGCGGAAAGCCAGAAGAUUUUAUCUAGCUUAUACAAGGCUGCUGGAGCUUGCUCUUUUUUUCCACGAGGGUGUUUUUGGCUGCA | 0.584 |
| GUGACUGGUGUUAAGAUUUCCCCUCAGCAAAGAAGUGCAGUAGUCACCAUAAUUCCAUCUAUAGUGAGUGCCAGUCAGAUUGUGGAGCUGGUCCCAGACCUCAGUUUAGACAUGGGAACU | 1.03 |
| GCUCUUGGGAAUGUAAUCAGCGCCUUGGGGGACAAGAGCAAGAGAGCCACCCAUGUCCCUUACAGAGACUCUAAGCUGACAAGACUCCUACAGGAUUCCCUUGGGGGUAACAGCCAAACC | 0.199 |
| CACAGAGCAGCACCUACCCCCUCCUCCUUUCCACACCUGCAAACUCUUUUACUUGGGCUGAAUAUUUAGUGUAAUUAACAUCGCAGCUUUGAGGGCUCUGUGGCAAAUUCCCGGAUUAAA | 1.38 |
| GGAAGUACAAUGAUGGAGAUUGAUGGUGACAAAGGCAAGCAGGGCGGGCCCACCUACUACAUAGAUACCAAUGCCCUGCGUGUUCCGAGGGAGAACAUGGAGGCCAUCUCACCACUCAAG | 0.262 |
| GAGUCGAUUAUGGAAACAACAAUUCGUUAUCUUGCAGCCUCAGUGUUCACUUGCUUGUGGCAAUAGCUGGGGUUUUAUAGGUUCUGGAAGGAGAACUGACGAUGAUGCUGCCGCUGCUGC | 0.256 |

Study 2
Target: Interferon regulatory factor 7, full length, phosphomimetic (IRF7, Homo sapiens, UniProt Q92985, residues 1-503, S471D/S472D/S475D/S476D/S477D/S483D/S484D/S487D)
Technique: protein-binding microarray
Molecule type: double-stranded DNA, one strand shown
Sample: in vitro
Tested at: 2200 nM top
Setting: 60-bp whole probe
Together with: salmon DNA 0.4 mg/ml
Relative to: random background probes
Direction: higher = stronger binding
All sequences stand within: GCCTAGCAC … GTCTTGATTCGCTTGACGCTGCTG
Residues (chain): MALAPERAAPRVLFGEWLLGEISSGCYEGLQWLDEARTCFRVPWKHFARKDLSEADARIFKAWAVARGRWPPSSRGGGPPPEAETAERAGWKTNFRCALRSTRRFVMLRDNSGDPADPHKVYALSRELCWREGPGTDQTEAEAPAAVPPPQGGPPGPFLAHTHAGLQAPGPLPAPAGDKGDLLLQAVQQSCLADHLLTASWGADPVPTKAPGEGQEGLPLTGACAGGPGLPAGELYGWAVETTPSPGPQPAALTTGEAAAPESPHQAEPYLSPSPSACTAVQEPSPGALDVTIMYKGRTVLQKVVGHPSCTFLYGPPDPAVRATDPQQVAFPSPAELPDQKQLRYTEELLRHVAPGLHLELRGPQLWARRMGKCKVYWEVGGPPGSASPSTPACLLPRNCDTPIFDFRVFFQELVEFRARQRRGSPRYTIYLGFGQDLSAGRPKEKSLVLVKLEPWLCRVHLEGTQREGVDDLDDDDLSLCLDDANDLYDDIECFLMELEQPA
| Oligonucleotide | fitted relative affinity |
| --- | --- |
| TGTGTCCTGGCTTTGACTCTGTGCTAG | 1.05 z-score |
| TTAGGAATCGGGTATCGGTTAGTGCTA | 0.293 z-score |
| TGATTGGTTGAACATGAACTGTGCTAG | 0.331 z-score |
| TTAGATCTCTGTCTCGATTAGTGCTAG | 0.592 z-score |
| GACGATCTCAGTATCCAGACGTGCTAG | 0.595 z-score |
| GACGGTATCGGGTATCGGGATGTGCTA | 0.15 z-score |
| TTAGATCTCAGTCTCCATTAGTGCTAG | 0.631 z-score |
| GAAGGTCTCCTTCTCCTGACGTGCTAG | 0.728 z-score |
| GTCGATATCGGGTTTCGAGACGTGCTA | 2.11 z-score |
| ACCCCAAAGAGGGGCAGTGTGTGCTAG | -0.484 z-score |
| GACGGTATCCTTTTCCTGTCGTGCTAG | 2.26 z-score |
| TCTTTTTGCTTTCTTTATGCGTGCTAG | 3.84 z-score |
| GACGAACTGAGTTTCTAGACGTGCTAG | 0.559 z-score |
| GACGATATCGGGTTTCTAGACGTGCTA | 0.677 z-score |
| TTATGTTTCGACACTGGGTTAGTGCTA | 2.56 z-score |
| TTAGATCGCAGTATCGATTAGTGCTAG | -0.0996 z-score |
| GACGATATCGGGTTTAGAGACGTGCTA | 0.159 z-score |
| TTAGATTTCAGTCTCGTTTAGTGCTAG | 1.4 z-score |

Study 3
Target: Centromere-binding protein 1, full length, His-tagged (CBF1, Saccharomyces cerevisiae, UniProt P17106, residues 1-351)
Chain of UniProt P17106 (whole entry, looked up): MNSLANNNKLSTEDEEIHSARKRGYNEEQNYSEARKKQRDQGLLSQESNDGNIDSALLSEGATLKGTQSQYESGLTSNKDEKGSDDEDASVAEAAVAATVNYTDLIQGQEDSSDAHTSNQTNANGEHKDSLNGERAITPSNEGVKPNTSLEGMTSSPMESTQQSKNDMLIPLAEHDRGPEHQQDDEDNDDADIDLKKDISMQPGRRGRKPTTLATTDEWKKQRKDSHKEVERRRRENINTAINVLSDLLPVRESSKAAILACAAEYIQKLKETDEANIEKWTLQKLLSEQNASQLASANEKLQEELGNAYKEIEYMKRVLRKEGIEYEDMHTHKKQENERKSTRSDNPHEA
Technique: competition protein-binding microarray
Molecule type: double-stranded DNA, one strand shown
Sample: in vitro
Tested at: 2 µM
Setting: whole 60-bp probe, lowest competitor level
Together with: Pho4 competitor, 0.05 µM
Direction: higher = stronger binding
All sequences stand within: … GTCTTGATTCGCTTGACGCTGCTG
| Oligonucleotide | fluorescence intensity |
| --- | --- |
| CGTCCTAGTGATTGGAGTGTGGGTGCCATGAGGAAG | 83.4 a.u. |
| TTACTCTTTAATAATCGGCAAGAAATAATTGAATTT | 87.5 a.u. |
| GTCTTGTCTCATTGTACTGTGGGTGTCCCCACTTCA | 70.7 a.u. |
| CGGGGTTAAGTTTGGCACGTGTTTTGCTTGCAGCAG | 1350 a.u. |
| ATATGTATTTCATTTCACGTGATGGGCTGGGATGTT | 2260 a.u. |
| GATGCGTTGCATACCCACGTGGAACAAATGGTCAAG | 845 a.u. |
| CTCGTTACATGTTCCAACGTGACTCGAGAAAGCATG | 767 a.u. |
| TAAGATCGTCAGTTTCACGTTCGCGGTTCGAACATG | 94.9 a.u. |
| TGCGCAACAACTTGGTTCGTGGGTGTATGTCTAGAA | 62.7 a.u. |
| CGGGGTTAAGTTTTTCACGTGTTTTGCTTGCAGCAG | 804 a.u. |
| CTAACGAAGGTTTTTCACGTGCTTTACAAGCCAAGT | 1360 a.u. |
| AAAGCGGTAATTTGAATGGTGGGTGCAGATATCTAT | 72.7 a.u. |
| CGTCCTAGTGATTGGCGTGTGGGTGCCATGAGGAAG | 103 a.u. |
| AAATTACTAAGTTGTCACGTGTTTTACCCCGTATGA | 6410 a.u. |
| AAATTACTAAGTTGCAAAGTGGGTGACGCCGTATGA | 76.6 a.u. |
| CTTCTGTAAATTTTTCACGTGGAGTGAAGCGCCCCG | 401 a.u. |
| AAAGCGGTAATTTGGCTAGTGGGTGCAGATATCTAT | 80.7 a.u. |
| TGGCGCTATCTAAATTCATGATGAAACTCGATGGCC | 65.7 a.u. |
| ACCCAAACTGTGTGGAACGTGACGGAATTGCATTTG | 384 a.u. |
| AAAGCGGTAATTTTCCACGTGTTTTCACATATCTAT | 858 a.u. |
| GTCTTGTCTCATTGTCACGCTACTTTCCCCACTTCA | 222 a.u. |
| GCTCCCTGGTTCCGTCACGCAAAACCGAAAGGCTCA | 65 a.u. |
| GATAGGGACGCGCATCATGTGTTGCTACTGTGTTTG | 196 a.u. |
| TGGGACAAAAATGATACCGTGATGGGCCAAAGTAGA | 113 a.u. |
| CTTTCCCGATCTTGGATGGTGGGTGTAGCACATTTG | 78.7 a.u. |

Study 4
Target: Histone acetyltransferase KAT6A, both winged helices, GST fusion (KAT6A, Homo sapiens, UniProt Q92794, residues 1-181)
Technique: protein binding microarray
Molecule type: double-stranded DNA, one strand shown
Sample: in vitro
Tested at: not given
Setting: 8-mer, flanks averaged, mean of 2 arrays, mostly near background
Relative to: not given
Direction: higher = stronger binding
Residues (chain): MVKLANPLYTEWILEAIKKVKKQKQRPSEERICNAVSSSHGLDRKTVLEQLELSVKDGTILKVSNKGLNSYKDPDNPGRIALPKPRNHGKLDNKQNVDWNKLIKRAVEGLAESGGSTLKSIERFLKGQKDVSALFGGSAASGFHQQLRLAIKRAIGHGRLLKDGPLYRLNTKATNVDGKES
| Oligonucleotide | E-score |
| --- | --- |
| ACCTAACG | -0.00607 |
| AACGGGGA | 0.0926 |
| ACTTCATG | -0.0131 |
| ACTTTCAT | -0.141 |
| GAGTACTA | -0.0658 |
| CGAACACC | 0.0735 |
| CTCAATTA | -0.0764 |
| CTTTCCGA | 0.114 |
| ATGACTCG | -0.0887 |
| AGCAACAC | -0.108 |
| AGCACGAC | -0.00112 |
| ATAAGTGG | -0.0499 |
| CCTCACAG | -0.132 |
| AAACCAGC | -0.00507 |
| TCGATCAA | 0.00591 |
| GGTGACAC | 0.027 |
| CTCATATC | -0.131 |
| CTGGGGGA | -0.186 |
| ACACCCGT | 0.205 |
| AGTTATGC | 0.0905 |
| AATGGTGG | -0.181 |
| GGACTACA | -0.0447 |
| GTCCGGAC | 0.268 |
| ATATAGAG | 0.000715 |
| ACAGATAA | -0.127 |

A few entries again (study 1):
| Oligonucleotide | bound/input enrichment [ratio] |
| --- | --- |
| CACAGAGCAGCACCUACCCCCUCCUCCUUUCCACACCUGCAAACUCUUUUACUUGGGCUGAAUAUUUAGUGUAAUUAACAUCGCAGCUUUGAGGGCUCUGUGGCAAAUUCCCGGAUUAAA | 1.38 |
| GUGACUGGUGUUAAGAUUUCCCCUCAGCAAAGAAGUGCAGUAGUCACCAUAAUUCCAUCUAUAGUGAGUGCCAGUCAGAUUGUGGAGCUGGUCCCAGACCUCAGUUUAGACAUGGGAACU | 1.03 |
| GGAAGUACAAUGAUGGAGAUUGAUGGUGACAAAGGCAAGCAGGGCGGGCCCACCUACUACAUAGAUACCAAUGCCCUGCGUGUUCCGAGGGAGAACAUGGAGGCCAUCUCACCACUCAAG | 0.262 |
| AAAGAGAAACUAAAGCAACUAAUAGAGAAGAGGAUUGGCAAAGAGAAUUUCAUAGAGAAACUAGGAUUUUAUUAGCAAACAUGAGUUUAUUCCAGAGCGUCUCAGAAACCCCAGCCAAAC | 16.9 |
| UAAAUUAGGGCUGCCGUUUUCUGUUUCUCCCUGGGCUGCGGAAAGCCAGAAGAUUUUAUCUAGCUUAUACAAGGCUGCUGGAGCUUGCUCUUUUUUUCCACGAGGGUGUUUUUGGCUGCA | 0.584 |
| UGUAGUUUCUUGAUUUAUCAUUUUUCUUGCUCGGGUUUUUCCUUUAGGAAAAGCCUAAAGAUUAGGUUGUAAGAAAAACAGAAGCCAUGUUUCGAAGGAAGACCUGUCAGGUAUUUCGUC | 0.141 |
| GUGACUGGUGUUAAGAUUUCCCCUCAGCAAAGAAGUGCAGUAGUCACCAUAAUUCCAUCUAUAGUGAGUGCCAGUCAGAUUGUGGAGCUGGUUCCAGACCUCAGUUUAGACAUGGGAACU | 0.408 |
| UCUGGUCACACUCGUGUAUAUGGUGUGUGCUUUGUGGACACUUCACUGGGCAAGUUUUUCAUCGGCCAGUUUUCAGAUGACCGCCACUGUUCCAGAUUUAGGACGCUAGUGGCUCACUAU | 0.227 |
| AAUUUCCUGUCAUACUUUUUAGACAUUCACAUCAGACUUACAGAGCACCUGGCCACAUUCUAGGUUUGAAUUAUUUCUAAGCCUUUUAUAUGAUCAAAUGAGAACACUGCUUAACUAAUG | 0.424 |
| GAGUCGAUUAUGGAAACAACAAUUCGUUAUCUUGCAGCCUCAGUGUUCACUUGCUUGUGGCAAUAGCUGGGGUUUUAUAGGUUCUGGAAGGAGAACUGACGAUGAUGCUGCCGCUGCUGC | 0.256 |
